Measurements from different studies.
Each line is one published result; not all experiments were run side by side.

| Compound | assay | system | setting | how to read | quantity | result |
| --- | --- | --- | --- | --- | --- | --- |
| COc1ccc([C@@H](O)c2cc(-c3ncnc4cc(N5CCOCC5)ccc34)c(F)cc2Cl)nn1 | – | locally advanced rectal cancer patients | 250 mg, drug-related adverse events, with: capecitabine and radiotherapy | – | patients with investigation abnormalities | 50% |
| C=CC(=O)NC1CCN(c2ncc3ncnc(Nc4ccc(Oc5ccc6c(c5)ncn6C)c(C)c4)c3n2)CC1 | – | male patients | oral, dose not given, on-treatment adverse events | – | patients with Toothache | 0% |
| CCO[C@H]1CCN(Cc2c(OC)cc(C)c3[nH]ccc23)[C@H](c2ccc(C(=O)O)cc2)C1 | measured: Headache | PNH patients, active haemolysis | oral, 100 mg twice daily, extension phase | – | patients with adverse event | 20% |
| COc1cc(Nc2ncc3c(n2)-c2ccc(Cl)cc2C(c2c(F)cccc2OC)=NC3)ccc1C(=O)O | measured: increased ALP, grade 1 | cancer patients, phase 1/2 | oral, dose not given, with: pembrolizumab | – | patients with adverse event | 25% |
| CCOc1c([C@H](C)n2nc(C)c3c(N)ncnc32)cc(Cl)c(F)c1[C@@H]1CNC(=O)C1 | measured: QTcF change ≤30 ms | previously treated B-cell malignancy | oral, 45 mg once daily, overall population | relative to: baseline | patients | 100% |
| CNC(=O)c1ccc(-c2cnc3ncc(Cc4ccc5ncccc5c4)n3n2)cc1F | measured: Dyspnea | cancer patients | oral, dose not given, dose escalation, grade 3-4 | – | patients with adverse event | 0% |
| CNC(=O)c1cc(Oc2ccc(NC(=O)Nc3cc(C(C)(C)C)nn3-c3ccc4ncccc4c3)c(F)c2)ccn1 | – | patients | oral, dose not given, cycles 1 and 2, High AUC subgroup | – | patients with grade 3 musculoskeletal disorders | 17% |
| C[C@@H](c1ccc2nccn2c1)n1nnc2ncc(-c3cnn(C)c3)nc21 | measured: Dyspnea grade ≥3 | EGFR-mutant MET-altered NSCLC | oral, dose not given, study | – | patients with treatment-related AEs | 0% |
| C[C@@H](Nc1cc(F)cc(F)c1)c1cc(C(=O)N(C)C)cc2c(=O)cc(N3CCOCC3)oc12 | measured: Hypersensitivity | advanced solid tumour patients | oral, dose not given, dose expansion | – | patients discontinuing for AE | 0% |
| Cc1cc(NC2CCN(C(=O)OC3CCN(C(=O)/C=C/CN(C)C)C3)CC2)n2ncc(C(C)C)c2n1 (stereo not shown) | – | patients with advanced solid tumours | dose not given, QD arm, any grade | – | patients with Headache | 9% |

Some of these lines once more:
| Compound | assay | system | setting | how to read | quantity | result |
| --- | --- | --- | --- | --- | --- | --- |
| COc1cc(Nc2ncc3c(n2)-c2ccc(Cl)cc2C(c2c(F)cccc2OC)=NC3)ccc1C(=O)O | measured: increased ALP, grade 1 | cancer patients, phase 1/2 | oral, dose not given, with: pembrolizumab | – | patients with adverse event | 25% |
| CCOc1c([C@H](C)n2nc(C)c3c(N)ncnc32)cc(Cl)c(F)c1[C@@H]1CNC(=O)C1 | measured: QTcF change ≤30 ms | previously treated B-cell malignancy | oral, 45 mg once daily, overall population | relative to: baseline | patients | 100% |
